{"data": "Measured values gathered from unrelated publications", "note": "Parts stem from different laboratories: compare values within a part only. Changes are numbered by the printed parent chain."}
{"data": "Series 1", "target": "Centromere-binding protein 1, full length, His-tagged (CBF1, Saccharomyces cerevisiae, UniProt P17106, residues 1-351)", "technique": "competition protein-binding microarray", "form": "double-stranded DNA, one strand shown", "sample": "in vitro", "concentration": "2 µM", "setting": "whole 60-bp probe, lowest competitor level", "added": "Pho4 competitor, 0.05 µM", "direction": "higher = stronger binding", "all sequences stand within": "… GTCTTGATTCGCTTGACGCTGCTG", "sequence of UniProt P17106 (whole entry, looked up)": "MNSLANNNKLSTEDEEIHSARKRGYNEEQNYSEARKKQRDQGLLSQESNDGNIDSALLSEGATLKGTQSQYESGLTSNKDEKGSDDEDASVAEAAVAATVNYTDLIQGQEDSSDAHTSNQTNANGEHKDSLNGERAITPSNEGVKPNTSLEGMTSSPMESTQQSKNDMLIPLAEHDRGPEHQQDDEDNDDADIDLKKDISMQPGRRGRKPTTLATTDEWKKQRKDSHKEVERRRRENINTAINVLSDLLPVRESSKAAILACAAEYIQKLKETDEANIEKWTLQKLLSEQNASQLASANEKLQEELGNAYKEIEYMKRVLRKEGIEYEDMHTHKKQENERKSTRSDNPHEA"}
{"Strand": "CGGGGTTAAGTTTGTCGAGTGGGTGGCTTGCAGCAG", "fluorescence intensity": "72.5 a.u."}
{"Strand": "AGTTCCGCTGTGCTGCATGTGTGTGTATGCCAATAT", "fluorescence intensity": "111 a.u."}
{"Strand": "CTTCTGTAAATTTGAATAGTGGGTGGACGCGCCCCG", "fluorescence intensity": "91.2 a.u."}
{"Strand": "GCCTTGCAATTTATCACCGTGAGACATCCAGACAGT", "fluorescence intensity": "92.5 a.u."}
{"Strand": "CTAACGAAGGTTTGTTTAGTGGGTGACAAGCCAAGT", "fluorescence intensity": "76.1 a.u."}
{"Strand": "ATACATCCCCAAGTTCACCTGACTGGAACTAGTGGA", "fluorescence intensity": "205 a.u."}
{"Strand": "ACACACAAATAGTTACACGTGAGAGAAAGGAAGGTA", "fluorescence intensity": "1100 a.u."}
{"Strand": "CCCGTTCGCTAACCAAGCGTGGGACAAGAGTTTAGG", "fluorescence intensity": "68.3 a.u."}
{"data": "Series 2", "target": "RNA binding protein fox-1 homolog 2, RRM domain, GST-SBP tag (RBFOX2, Homo sapiens, UniProt O43251-10, residues 100-194)", "technique": "RNA Bind-n-Seq", "form": "RNA", "sample": "in vitro", "concentration": "365 nM", "setting": "natural RNA segment, single round, ends assumed", "relative to": "no-protein control", "direction": "higher = stronger binding", "all sequences stand within": "GGGAGUUCUACAGUCCGACGAUC … UGGAAUUCUCGGGUGCCAA", "Target sequence (chain)": "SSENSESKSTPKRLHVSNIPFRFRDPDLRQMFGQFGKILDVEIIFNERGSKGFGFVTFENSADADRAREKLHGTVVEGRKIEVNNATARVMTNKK"}
{"Strand": "ACAUAACCAAGAAAGGAUUUUGACUUUGUCACAGUGACUAUUUAAAAUAAUCUAUUCGAAGUCCAAACCAAACACAAAGCCUGUGAUAUUUUAGGUUAUUAAGGUAACUG", "RBNS enrichment (R)": 0.321}
{"Strand": "GUGUGCCGGGCUCUGACUGAGAAACUGAACAAUGGCAGGCGCUUCAUCUGGGCAGCCAUUUUUCUUCUCUGCUUCUCUUGAGAUACAUAGUUAAAGUAGACACGGCCUCC", "RBNS enrichment (R)": 0.32}
{"Strand": "CUGGCUGAGGGGAGUGUCCAUCAUAUGAAAGGGAGACAGGAGAGGAAGCUCUCCGUUGUCUUUCAGUGAUACCCUCUUCCUUGCUUAAUUUGCUCUGAAAAGAAGCACAG", "RBNS enrichment (R)": 0.236}
{"Strand": "ACCCACAGAUGGCCCUGGGAAUCAAUUCCUCAGGAAUUGCCCUCAAGAACUCUGCUUCUUGCUUUGCAGAGUGCCAUGGUCAUGUCAUUCUGAGGUCACAUAACACAUAA", "RBNS enrichment (R)": 0.192}
{"Strand": "GUUUGAAUGCAGAUUUUUAUCCACAGAUAGUUGUAGUGUUUAGACAUGACAGGACCUAUCGUUGAGGUUUCUAAGACUUACUAUGGGCUGUAAACCUGUUUUUUAAAACU", "RBNS enrichment (R)": 1.09}
{"Strand": "UUGUUAAUAAACCUAACAAUGACCCUGAUAGUACAGGUUAAGUGAGAGAACUAUAUGAAUUCUAACAAGUCAUAGGUUAAUAUUUAAGACACUGAAAAAUCUAAGUGAUA", "RBNS enrichment (R)": 0.31}
{"Strand": "GUCAUGUGGAAAUGGAAGUAGCCUCUUUUUGUUCUGAAAUUGAGUUUAUUCAAAGUGUAAAAGCACAUACUGCAUUUUCUGCUGAAAGAUCAUUAUGUUUAACAGGCACU", "RBNS enrichment (R)": 0.953}
{"Strand": "UCUAGAAUGACUUGGUGUCCUGAUGCACUUCUCACCAGAGGCUGCCUAGCAGCAUGUGUUAGCCAAAGUCUUCCUCCUUGUUUUGAGAAGACUCCAGGACAGGACAGGCA", "RBNS enrichment (R)": 1.32}
{"data": "Single results of other studies", "P1": "viral docking peptide; KGVKRKLFAEDSS; partner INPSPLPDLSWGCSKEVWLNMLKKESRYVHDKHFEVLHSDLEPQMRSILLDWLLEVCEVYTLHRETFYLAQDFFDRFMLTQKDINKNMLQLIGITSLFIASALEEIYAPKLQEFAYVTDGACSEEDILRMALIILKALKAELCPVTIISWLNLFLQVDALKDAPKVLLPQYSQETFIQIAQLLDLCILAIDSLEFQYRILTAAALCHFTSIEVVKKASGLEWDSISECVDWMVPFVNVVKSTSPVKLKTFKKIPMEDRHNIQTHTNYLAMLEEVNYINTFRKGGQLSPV"}
{"Molecule": "UTP15 (Homo sapiens, UniProt Q8TED0)", "target or system": "UTP18 (Homo sapiens, UniProt Q9Y5J1)", "test": "cross-linking MS", "system": "cell fractions", "conditions": "added: DMTMM", "measurement": "cross-linked residues", "result": "D349 to K287"}
{"Molecule": "P1 E10Q", "target or system": "CCNE2, cyclin fold, Cln2 fusion (human)", "test": "yeast growth competition, sequencing", "system": "yeast", "conditions": "strong parent motif", "how to read": "relative to: not given, higher = stronger binding", "measurement": "normalised enrichment score", "result": 5.61}
{"Molecule": "MYO18B (Homo sapiens, UniProt Q8IUG5)", "target or system": "SCN8A (Homo sapiens, UniProt Q9UQD0)", "test": "cross-linking MS", "system": "cell fractions", "conditions": "added: DMTMM", "measurement": "cross-linked residues", "result": "K796 to E507"}
{"Molecule": "TXNDC9 (Homo sapiens, UniProt O14530)", "target or system": "CCT3 (Homo sapiens, UniProt P49368)", "test": "cross-linking MS", "conditions": "hits only", "measurement": "interaction screen", "result": "cross-linked"}
{"Molecule": "PSMA2 (Homo sapiens, UniProt P25787)", "target or system": "PSMB7 (Homo sapiens, UniProt Q99436)", "test": "cross-linking MS", "conditions": "hits only", "measurement": "interaction screen", "result": "cross-linked"}
{"note": "Excerpt of the above (single results of other studies):"}
{"Molecule": "MYO18B (Homo sapiens, UniProt Q8IUG5)", "target or system": "SCN8A (Homo sapiens, UniProt Q9UQD0)", "test": "cross-linking MS", "system": "cell fractions", "conditions": "added: DMTMM", "measurement": "cross-linked residues", "result": "K796 to E507"}
